Experimental data collected from several papers.
Each numbered part is a random draw from the data of one study; scales do not carry over between parts. Substitutions count along the parent as printed.

Set 1
Target: Histone acetyltransferase KAT6A, both winged helices, GST fusion (KAT6A, Homo sapiens, UniProt Q92794, residues 1-181)
Technique: protein binding microarray
Form: double-stranded DNA, one strand shown
Medium: in vitro
Tested at: not given
Setting: 8-mer, flanks averaged, mean of 2 arrays, mostly near background
Relative to: not given
Direction: higher = stronger binding
Target sequence (chain): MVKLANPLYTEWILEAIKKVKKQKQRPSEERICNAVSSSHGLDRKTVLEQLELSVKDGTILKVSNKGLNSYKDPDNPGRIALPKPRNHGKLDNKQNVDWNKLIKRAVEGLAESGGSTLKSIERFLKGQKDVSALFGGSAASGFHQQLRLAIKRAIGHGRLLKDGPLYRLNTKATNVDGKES
| Oligonucleotide | E-score |
| --- | --- |
| CACAGAAC | -0.0419 |
| ATGTTTGC | -0.0747 |
| CCAAAAAG | -0.0729 |
| ACAGGACC | -0.0548 |
| ACAGAACT | -0.137 |
| GACGACGC | 0.189 |
| CGTTCGGA | 0.206 |
| ATATGGTC | -0.201 |
| CTTCGCTC | 0.0885 |
| AGCCAGAG | -0.16 |
| ATCGGAAT | 0.0945 |
| CATACAGC | 0.124 |
| ACCTACTC | -0.165 |
| AGGGCTAG | -0.11 |
| ACCTTTGC | 0.00726 |
| AGGGCGTA | 0.135 |
| CCACGACA | -0.0549 |
| GTGCTCGA | -0.0288 |
| CTGTGGCA | -0.218 |
| GCATGGAA | -0.027 |
| GACTTCAC | -0.00619 |

Set 2
Target: CCNE2, cyclin fold, Cln2 fusion (human)
Technique: yeast growth competition, sequencing
Medium: yeast
Setting: strong parent motif
Relative to: not given
Direction: higher = stronger binding
Starting sequence: SCAPER docking peptide (human); SNARRSLNFGGST; partner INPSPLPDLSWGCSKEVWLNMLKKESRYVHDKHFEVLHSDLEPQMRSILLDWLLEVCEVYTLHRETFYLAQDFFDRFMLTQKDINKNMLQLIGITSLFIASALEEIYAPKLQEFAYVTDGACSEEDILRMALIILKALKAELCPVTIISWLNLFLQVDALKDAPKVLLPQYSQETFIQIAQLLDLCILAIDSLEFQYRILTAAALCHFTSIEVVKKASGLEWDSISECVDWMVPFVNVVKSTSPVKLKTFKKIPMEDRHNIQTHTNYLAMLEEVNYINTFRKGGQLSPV
| Change | normalised enrichment score |
| --- | --- |
| S1M | 1.29 |
| S1R | 0.177 |
| N8K | 1.44 |
| R5K | 0.0537 |
| A3Y | 1.09 |
| S12T | 0.93 |
| S6C | 2.94 |
| S12H | 0.938 |
| S6M | 3.38 |
| T13C | 1.65 |
| S12K | 1.38 |
| N8H | 1.57 |
| R5Q | 0.187 |
| N2W | 0.156 |
| R4V | 1.23 |
| R5L | 0.0278 |
| F9W | 1.88 |
| G11L | 0.188 |
| G11H | 0.721 |
| N2D | 0.248 |
| L7P | 0.195 |
| G11V | 1.68 |
| S1G | 1.42 |
| G10P | 1.1 |
| L7M | 0.782 |

Set 3
Target: NFE2L3, bZIP domain (human)
Technique: DHFR protein complementation
Medium: yeast
Setting: single substitutions, most at no-binding floor
Relative to: wild-type JUN-FOS pair
Direction: higher = stronger binding
Starting sequence: JUN, bZIP domain (human); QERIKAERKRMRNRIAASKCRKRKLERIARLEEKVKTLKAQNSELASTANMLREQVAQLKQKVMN; partner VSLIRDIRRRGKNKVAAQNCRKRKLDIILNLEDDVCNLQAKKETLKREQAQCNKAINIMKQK
| Change | binding fitness |
| --- | --- |
| E54D | -1.54 natural log |
| S47D | -1.38 natural log |
| V56S | -1.39 natural log |
| S43L | -1.53 natural log |
| T48L | -1.51 natural log |
| A57V | -1.53 natural log |
| L31K | -1.51 natural log |
| K34W | -1.52 natural log |
| S47N | -1.51 natural log |
| R53N | -1.42 natural log |
| Q55W | -1.46 natural log |
| A49L | -1.33 natural log |

Set 4
Target: Fragile X messenger ribonucleoprotein 1, C-terminal low-complexity region (Fmr1, Mus musculus, UniProt P35922)
Technique: RNA Bind-n-Seq
Form: RNA
Medium: in vitro
Tested at: 200 nM
Setting: whole 134-nt RNA, ends assumed
Together with: 150 mM LiCl
Relative to: input library
Direction: higher = stronger binding
Each molecule: 7-deaza-guanosine replaces G
All sequences stand within: GGGAGUUCUACAGUCCGACGAUC … UGGAAUUCUCGGGUGUCAAGG
| Oligonucleotide | log2 enrichment |
| --- | --- |
| CCUCAAGUCCUGUGCUACACAUCGUAUGUACCGAAUCGGGAGGGAGGAGGGGAAAGUAUUAUGUUACGCCGUUCGGAUCUGCACUUCCAG | -0.951 |
| CAAGUCCUGUGCUACACAUCGUAUGUACCGAAUCGGGCCCGGGCCCGGCCCGGGGAAAGUAUUAUGUUACGCCGUUCGGAUCUGCACUUC | -1.93 |
| GCAGGAAGUAAAAACAAAUGGAAAUGCUUCGGAUAGUGGCAGGGGUGGGGGUUGCUAAGGAAAGGGUGGGAUGGGAGUGGUUAAAGAGUU | 1.76 |
| CCUCAAGUCCUGUGCUACACAUCGUAUGUACCGAAUCGGGCGGCGGGCGGGGAAAGUAUUAUGUUACGCCGUUCGGAUCUGCACUUCCAG | 0.462 |
| AGUCCUGUGCUACACAUCGUAUGUACCGAAUCGGGGUUUUGGGUUUUGGGGUUUUGGGAAAGUAUUAUGUUACGCCGUUCGGAUCUGCAC | -1.08 |
| GUCCUGUGCUACACAUCGUAUGUACCGAAUCGGGGAAAAAGGGAAAAAGGGGAAAAAGGAAAGUAUUAUGUUACGCCGUUCGGAUCUGCA | 0.528 |
| UCCUCAAGUCCUGUGCUACACAUCGUAUGUACCGAAUCGGUUUGGUGGAGGAAAGUAUUAUGUUACGCCGUUCGGAUCUGCACUUCCAGC | -1.62 |
| AAGUCCUGUGCUACACAUCGUAUGUACCGAAUCGGGGUGGGGAAAAAGGGGUGGGGAAAGUAUUAUGUUACGCCGUUCGGAUCUGCACUU | 0.189 |
| UGGCCCUGGUGGCACGCGGGGAGGAAGAGGUGGCCUCAUGGAUCGUGGUGGUCCCGGUGGAAUGUUCAGAGGUGGCCGUGGUGGAGACAG | 0.191 |
| GUCCUGUGCUACACAUCGUAUGUACCGAAUCGGCCCCCGGGCCCCCGGGGCCCCCGGGAAAGUAUUAUGUUACGCCGUUCGGAUCUGCAC | -2.82 |
| CAAGUCCUGUGCUACACAUCGUAUGUACCGAAUCGGGAAAGGGAAAAAGGGUGGGAAAGUAUUAUGUUACGCCGUUCGGAUCUGCACUUC | -1.1 |

Set 5
Target: ABI1, truncated, D143A, DHFR fusion (Arabidopsis thaliana)
Technique: DHFR PCA, deep sequencing
Medium: yeast
Setting: methotrexate growth selection, single substitutions
Together with: (+)-ABA 4.8 µM
Relative to: wild-type fitted maximum
Direction: higher = stronger binding
Starting sequence: PYL1, truncated, DHFR fusion (Arabidopsis thaliana); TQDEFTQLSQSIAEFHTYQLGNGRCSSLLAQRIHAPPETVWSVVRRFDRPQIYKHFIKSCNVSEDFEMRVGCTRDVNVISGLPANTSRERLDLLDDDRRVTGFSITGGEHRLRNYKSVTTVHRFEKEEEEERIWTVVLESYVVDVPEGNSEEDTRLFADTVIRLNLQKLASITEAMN
| Change | relative binding score [%] |
| --- | --- |
| H34F | 63.3 |
| L94H | 50.4 |
| T6N | 72.7 |
| S59R | 40.2 |
| E64Y | 47.3 |
| T154V | 81.2 |
| A158H | 5.26 |
| D97F | 45.8 |
| E125S | 78.9 |
| D159N | 78.4 |
| R99I | 7.04 |
| L138H | -35.4 |
| R111M | 25.4 |
| V100N | -13 |
| H34E | 71.4 |
| S27Y | 13.1 |

Set 6
Target: Sal-like protein 4, full length isoform A (SALL4, Homo sapiens, UniProt Q9UJQ4, residues 1-1053)
UniProt Q9UJQ4, sequence (whole entry, looked up): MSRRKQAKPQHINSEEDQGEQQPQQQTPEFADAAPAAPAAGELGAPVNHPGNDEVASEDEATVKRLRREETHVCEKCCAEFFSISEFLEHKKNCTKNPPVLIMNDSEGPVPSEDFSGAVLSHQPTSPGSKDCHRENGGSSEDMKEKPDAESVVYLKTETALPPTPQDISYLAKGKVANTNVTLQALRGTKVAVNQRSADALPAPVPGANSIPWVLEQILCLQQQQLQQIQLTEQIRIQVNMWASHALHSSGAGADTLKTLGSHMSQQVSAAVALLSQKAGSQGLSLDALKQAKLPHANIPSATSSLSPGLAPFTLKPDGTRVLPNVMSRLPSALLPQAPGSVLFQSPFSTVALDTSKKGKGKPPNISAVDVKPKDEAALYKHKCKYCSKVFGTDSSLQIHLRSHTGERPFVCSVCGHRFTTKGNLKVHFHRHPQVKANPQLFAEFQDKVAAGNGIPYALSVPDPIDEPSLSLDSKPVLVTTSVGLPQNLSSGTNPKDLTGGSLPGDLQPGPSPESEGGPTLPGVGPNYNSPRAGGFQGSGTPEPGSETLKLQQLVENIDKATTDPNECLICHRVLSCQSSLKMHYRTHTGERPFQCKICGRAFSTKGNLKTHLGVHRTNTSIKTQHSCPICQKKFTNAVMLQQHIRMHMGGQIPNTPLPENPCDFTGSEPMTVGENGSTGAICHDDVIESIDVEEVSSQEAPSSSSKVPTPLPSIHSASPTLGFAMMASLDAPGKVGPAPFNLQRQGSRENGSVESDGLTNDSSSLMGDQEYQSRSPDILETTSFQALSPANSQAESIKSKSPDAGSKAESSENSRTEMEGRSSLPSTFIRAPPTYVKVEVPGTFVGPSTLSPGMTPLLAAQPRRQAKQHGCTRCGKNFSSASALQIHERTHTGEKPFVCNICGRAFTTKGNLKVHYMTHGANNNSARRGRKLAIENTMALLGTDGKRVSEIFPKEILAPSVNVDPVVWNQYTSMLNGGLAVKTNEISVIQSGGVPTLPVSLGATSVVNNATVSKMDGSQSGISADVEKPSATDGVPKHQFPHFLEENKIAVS
Technique: universal PBM
Form: double-stranded DNA, one strand shown
Medium: in vitro
Tested at: 600 nM
Setting: 8-mer, flanks averaged, mean of replicates
Direction: higher = stronger binding
| Oligonucleotide | E-score |
| --- | --- |
| AACATCAG | 0.118 |
| ACGTTTGG | 0.0727 |
| AAAGGTTA | 0.107 |
| CCGTTCCC | -0.275 |
| ACCGAGGC | -0.35 |
| CGCCTGGA | -0.268 |
| CAAACGCA | 0.0181 |
| AAGAGATT | 0.114 |
| AGACCACC | -0.206 |
| CTAGCCTC | -0.105 |
| AAGCACGG | -0.274 |
| CCTGGAAA | -0.0258 |
| ACTGGTAC | -0.167 |
| GCCAAGCC | -0.267 |
| GTCAGGAC | -0.197 |
| GGTAGGAA | -0.0301 |
| GCAGCGAC | -0.367 |
| TAAGAGCA | 0.00775 |
| AACACCGA | -0.0691 |
| AGGACAGC | -0.278 |
| CGCAGTTC | -0.21 |
| ACGTAGGG | -0.123 |
| ACTAACAT | 0.182 |
| CATCTGCC | -0.27 |
| ACAGGGGT | -0.246 |

Single results of other studies
| Substance | target | test | test system | conditions | how to read | endpoint | result |
| --- | --- | --- | --- | --- | --- | --- | --- |
| PhoQ, residues 284 288 289 292 302 303 TLASMF | PhoP, residues 12 14 15 18 19 IQFRS (Escherichia coli, UniProt P23836) | Sort-seq, item: YFP reporter | E. coli | PhoQ-PhoP variant library, together with: 10 µM Mg2+ | relative to: high Mg2+ state, higher = stronger signaling | fold induction | 7.45 |

Some of these lines once more (set 5):
| Change | relative binding score [%] |
| --- | --- |
| R111M | 25.4 |
| D97F | 45.8 |
| H34F | 63.3 |
| E64Y | 47.3 |
| A158H | 5.26 |
| R99I | 7.04 |
| V100N | -13 |
| S27Y | 13.1 |
| H34E | 71.4 |
